Results gathered from unrelated publications.
Numbered parts are unrelated; each lists some results of a single study.

Set 1
Target: RNA binding protein fox-1 homolog 2, RRM domain, GST-SBP tag (RBFOX2, Homo sapiens, UniProt O43251-10, residues 100-194)
Method: RNA Bind-n-Seq
Form: RNA
Medium: in vitro
Tested at: 365 nM
Setting: natural RNA segment, single round, ends assumed
Relative to: no-protein control
Reading: higher = stronger binding
Measurement: RBNS enrichment (R)
Shared flanks, not repeated: GGGAGUUCUACAGUCCGACGAUC … UGGAAUUCUCGGGUGCCAA
Construct (chain): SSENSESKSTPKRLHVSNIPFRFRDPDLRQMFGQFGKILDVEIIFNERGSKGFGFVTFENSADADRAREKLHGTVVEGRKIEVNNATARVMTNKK
GAACGAAUUGAUGUGUAACUGUAUGCAGACUGGUUGUAGUGGAACAAAUCUGAUAACUAUGCAGGUUUAAAUUUUCUUAUCUGAUUUUGGUAAGUAUUCCUUAGGUUUUU: 1.86
GUCUUGUGGGGGAAUUGGAUUCCAUUUUAGUUAUUUAAUACCUCACUCCCACCCACCUGCAUACUGCUUGUGUGUCCCGGCCUGUCCCGCAAGCCUAGUUGUGCUUUUUG: 1.98
AGCAAAUGUCCCGCCCCUGGGGACAGUGCGCCCGCUCGCCCUUGGUUGUGCUGGGCAGCAUUUGUACAUACAUGCGCGCAUUUAGUUUGCAGUUAAUUCCUGCUGCGCUG: 0.459
AAAAUGAGCCCUCACUUCAGCCUGUAUCUAGCACGUGGGGCAGCUGCCUAGCUGACUGCUGCACAAGGCUGACUCUGGGCUCUACCCACCCUGCCUGAUGAGCCCUUCAC: 0.309
GUUAGUGGCUGCUGGCGUUUUGGCCCUUGGUGUUUCUGGAGCCUCCAGGGAUCUAGGGGAGCCUGGGCUGCGUGCAUGUCGAUAAGCAGAGCUGUUCUUGGGGAGAAGGA: 4.72
AGCUAGAGCAAUCCAGGAGACUGUUUGGUAGAUGUUCACAACUUCACCAAACUUAAAUAGCAGGAGGAGACUGGCAGGUGAGUGUGUCCAAGAAAUCCACAUUUGUGCUG: 0.447
AACCAUUUAAAAUAAUGGAUGGGUUACUAUGAGCAAUUUCGCUUUCAGAACCCCCUUGUUUUAGUAUAUGAAAAAGCCUAAUGCGCAUUAAUGAGGUUGAAGAGACUAUG: 0.588
AUAGUCAAAACAAAUCGGUGCCACCCGGCCGUGACAAAUCCUAGUAGAUUCUGUGCAUGUGGAGCGGCCGCGAAGAGGUGACACCGUUUGGGGCUGUGUCCUUAUUUUAU: 12.1

Set 2
Target: RING finger protein unkempt homolog, zinc fingers 1-6, GST-SBP tag (UNK, Homo sapiens, UniProt Q9C0B0, residues 30-357)
Chain of UniProt Q9C0B0 (30-357, looked up): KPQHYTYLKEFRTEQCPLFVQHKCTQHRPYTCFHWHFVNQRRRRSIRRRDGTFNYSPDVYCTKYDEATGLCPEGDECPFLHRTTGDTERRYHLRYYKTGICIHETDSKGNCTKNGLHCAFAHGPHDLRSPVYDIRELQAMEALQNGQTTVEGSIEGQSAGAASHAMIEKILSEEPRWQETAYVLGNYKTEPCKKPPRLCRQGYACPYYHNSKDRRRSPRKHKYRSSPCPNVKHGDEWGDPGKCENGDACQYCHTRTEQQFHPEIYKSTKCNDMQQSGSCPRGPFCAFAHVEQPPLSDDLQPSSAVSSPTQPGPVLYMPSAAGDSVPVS
Method: RNA Bind-n-Seq
Form: RNA
Medium: in vitro
Tested at: not given
Setting: RNA with constant flanks, ends assumed
Relative to: input RNA pool
Reading: higher = stronger binding
Measurement: bound/input enrichment
Shared flanks, not repeated: GGGAGUUCUACAGUCCGACGAUC … CAACAGAGGAUUGAGCAUCA
GGAUAUUCUAAAAUUCAGAUUUACUUAACUGAUCCAGACUUUAAGGGUUUUAUACGAAUCCGCUGUUGCCAAUACUGUAAGGUAGAAUUUCAUAUGAACUGCUGGAAAAAGUUAAAAACA: 0.21 ratio
GAACUGUUGAGUUCUUAUGAUGUUGAUAUUAAUCAGAUCAUAAAUACCAUAUCUGAAUGGGCCGUUAUGAUUAAGACCAGAGGUGUUAGGCGACCGGAGUUUCAGCCUCUACUAACUGAG: 0.144 ratio
CAGUUUGACACUAAGAUAAUGAACUUCUGUGUGCAUUUUUCUAUGCUUUAUUUUUUAAUGCCGCUUACUUCCUGAGAUUUUGGCUUUGUUUAUACAAUCUGAGGGUGGUUAUAAAUACUG: 0.162 ratio
AAUAAGCCCUGCCCAGUAUGUAGACAACCAAUUCAAAUGAUUGUGCUAACUUAUUUCCCCCCGUUGACCUGUCUAUAAGAGAAUUAUAUAUUUCUAACUAUAUAACCCUAGGAAUUUAGA: 3.6 ratio
CCAUUGUACCCUGCUGUAUAAUAAACAAUCUUAGACAUUUAUCAACUGUUGAUACAAAUGUCCGUCCCUAACCACUUUUUAUAUAUGUUUUAAAUUUUUGAAAUUCAAGUGUACCUGCCA: 11.5 ratio
GAGACUAAUGUUUAACUUUGAGAUACGUUUUCUGAGAGUUGCUAACCGGUUGGAGAUGAACUCCGAGAAUAGGGUUCACCUUUUUCGUCUGUCAGCGGGUUAUCGAGUGCCCAGUGGUGU: 0.176 ratio
AAUGAAACUGCAGAAAAAACCCUGGGAGUCCUGGCAGAUGAAGACAACACAUUGCAACAAAACCGCAGCAGCAGAAAUACCAGCUACAGCAGUGCAGUGCAAAAAGAAAUCACACUGCCU: 0.17 ratio
UCAGGGGGCACACUGAGUGGUGGUAUUCUCUCCAGCGGCAAGGGAAAGUACAGCCGGUCCGAAGUUCAAGCUGAUGUCCAAAAGGAAAUUUUCCCCAAAGACACAGCCAGUCUUGGUGCA: 0.264 ratio

Set 3
Target: Histone acetyltransferase KAT6A, winged helix 1, GST fusion (KAT6A, Homo sapiens, UniProt Q92794, residues 1-85)
Method: protein binding microarray
Form: double-stranded DNA, one strand shown
Medium: in vitro
Tested at: not given
Setting: 8-mer, flanks averaged, mean of 2 arrays, mostly near background
Relative to: not given
Reading: higher = stronger binding
Measurement: E-score
Residues (chain): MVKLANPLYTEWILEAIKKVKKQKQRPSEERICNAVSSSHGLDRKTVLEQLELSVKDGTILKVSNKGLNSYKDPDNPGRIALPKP
AACATAGT: -0.0817
AAATTCAC: -0.161
AAAAGCTT: 0.00783
CCCACAGC: -0.217
CCGTACAG: 0.223
ATGAAGAC: -0.0979
CTGCAGAC: -0.0417
CCTCGCGC: 0.334
GTCGTGGA: 0.0966
AGTGCACG: 0.189
ATCGAGAT: -0.1
CGCGGCAC: 0.434
AATGAGAA: -0.0823
TCTTCCCA: -0.215
ACAAAACG: 0.0217
GTCGCCGA: 0.316
ATAGACAG: -0.151
AACGGACC: 0.206
CCAAGGGC: 0.0199

Set 4
Target: Ras GTPase-activating protein-binding protein 1, full length (G3BP1, Homo sapiens, UniProt Q13283)
Chain of UniProt Q13283 (whole entry, looked up): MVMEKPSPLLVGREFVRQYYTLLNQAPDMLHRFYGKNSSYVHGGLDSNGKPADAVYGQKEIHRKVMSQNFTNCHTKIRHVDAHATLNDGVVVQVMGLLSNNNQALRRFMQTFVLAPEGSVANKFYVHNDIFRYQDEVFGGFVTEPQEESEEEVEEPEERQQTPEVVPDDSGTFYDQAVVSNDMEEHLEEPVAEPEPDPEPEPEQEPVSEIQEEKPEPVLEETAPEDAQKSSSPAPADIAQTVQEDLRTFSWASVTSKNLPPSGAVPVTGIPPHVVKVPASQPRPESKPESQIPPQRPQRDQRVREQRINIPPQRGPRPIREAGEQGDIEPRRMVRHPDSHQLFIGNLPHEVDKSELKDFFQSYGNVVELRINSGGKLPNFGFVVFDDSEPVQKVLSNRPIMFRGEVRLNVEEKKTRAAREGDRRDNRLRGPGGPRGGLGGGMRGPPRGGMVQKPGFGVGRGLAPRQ
Method: RNA Bind-n-Seq
Form: RNA
Medium: in vitro
Tested at: 200 nM
Setting: whole 134-nt RNA, ends assumed
Added: 150 mM LiCl
Relative to: input library
Reading: higher = stronger binding
Measurement: log2 enrichment
Library: 7-deaza-guanosine replaces G
Shared flanks, not repeated: GGGAGUUCUACAGUCCGACGAUC … UGGAAUUCUCGGGUGUCAAGG
UGGCCCUGGUGGCAUGCGGGGUGGAAGAGGUGGCCUCAUGGAUCGUGGUGGUCCCGGUGGAAUGUUCAGAGGUGGCCGUGGUGGAGACAG: 0.653
CACAGACAACACGCACCCACACAGACACAGAGGGAAGGGGUUGGGAUGGGGACAGGGUGCACAGCAGGGCGCGGUAGGACCCCAGCCCCU: 0.458
CCUGUGCUACACAUCGUAUGUACCGAAUCAAACCCCCCCAAAUUUUUAAACCCCCCCAAAAAAGUAUUAUGUUACGCCGUUCGGAUCUGC: 1.1
GUCCUGUGCUACACAUCGUAUGUACCGAAUCGGUUUUUUUGGAAAAAAAGGAAAAAGGAAAGUAUUAUGUUACGCCGUUCGGAUCUGCAC: -2.15
CCUGUGCUACACAUCGUAUGUACCGAAUCGGGAAAAAAAGGGUUUUUGGGAAAAAAAGGGAAAGUAUUAUGUUACGCCGUUCGGAUCUGC: -0.865
GCAGUAAGUAAAAACAAAUGGAAAUGCUUCGGAUAGUGGCAGGGGUGGGGGUUGCUAAGGAAAGGGUGGGAUGGGAGUGGGUAAAGAGUU: 0.518
CCUCAAGUCCUGUGCUACACAUCGUAUGUACCGAAUCGGGCGGCGGGGCGGGAAAGUAUUAUGUUACGCCGUUCGGAUCUGCACUUCCAG: 0.306
UCAAGUCCUGUGCUACACAUCGUAUGUACCGAAUCGGAAAAAGGAAAGGUUUGGAAAGUAUUAUGUUACGCCGUUCGGAUCUGCACUUCC: -1.08

For quick reference, copied from above (set 2):
CAGUUUGACACUAAGAUAAUGAACUUCUGUGUGCAUUUUUCUAUGCUUUAUUUUUUAAUGCCGCUUACUUCCUGAGAUUUUGGCUUUGUUUAUACAAUCUGAGGGUGGUUAUAAAUACUG: 0.162 ratio
AAUAAGCCCUGCCCAGUAUGUAGACAACCAAUUCAAAUGAUUGUGCUAACUUAUUUCCCCCCGUUGACCUGUCUAUAAGAGAAUUAUAUAUUUCUAACUAUAUAACCCUAGGAAUUUAGA: 3.6 ratio
CCAUUGUACCCUGCUGUAUAAUAAACAAUCUUAGACAUUUAUCAACUGUUGAUACAAAUGUCCGUCCCUAACCACUUUUUAUAUAUGUUUUAAAUUUUUGAAAUUCAAGUGUACCUGCCA: 11.5 ratio
GAGACUAAUGUUUAACUUUGAGAUACGUUUUCUGAGAGUUGCUAACCGGUUGGAGAUGAACUCCGAGAAUAGGGUUCACCUUUUUCGUCUGUCAGCGGGUUAUCGAGUGCCCAGUGGUGU: 0.176 ratio
AAUGAAACUGCAGAAAAAACCCUGGGAGUCCUGGCAGAUGAAGACAACACAUUGCAACAAAACCGCAGCAGCAGAAAUACCAGCUACAGCAGUGCAGUGCAAAAAGAAAUCACACUGCCU: 0.17 ratio
UCAGGGGGCACACUGAGUGGUGGUAUUCUCUCCAGCGGCAAGGGAAAGUACAGCCGGUCCGAAGUUCAAGCUGAUGUCCAAAAGGAAAUUUUCCCCAAAGACACAGCCAGUCUUGGUGCA: 0.264 ratio
